Experimental data pooled from the literature.
Numbered parts are unrelated; each lists some results of a single study. Several values in a cell are separate wells, animals, samples, runs or records.

Set 1
Cell line: mouse MPNST tumor cells
Technique: high-content immunofluorescence imaging
Measured: nuclear SOX9
Tested at: 10 µM
Time: 12 h
Notes: mean of 2 replicates
Reference: DMSO control
Reading: higher = more nuclear SOX9
Compound | nuclear SOX9 intensity
CCCOc1ccc(Br)cc1-c1cc(-c2ccc(Cl)cc2)[nH]c1-c1ccncc1 | 136 % of DMSO
CN(c1ccccc1CNc1nc(Nc2ccc3c(c2)CC(=O)N3)ncc1C(F)(F)F)S(C)(=O)=O | 64.9 % of DMSO
Cc1csc(NC(=O)c2cc(F)cc(Oc3cncnc3)c2)n1 | 92.3 % of DMSO
C#CC1(O)CCC2C3CCc4cc(OC)ccc4C3CCC21C (stereo not shown) | 104 % of DMSO
Cc1ccc(-c2ccc(F)cc2COc2ccc(CCC(=O)O)cc2)cc1 | 108 % of DMSO
Cc1cc(C)c2c(N)c(C(=O)NCc3ccc(Cl)cc3)sc2n1 | 105 % of DMSO
CC(=O)Nc1ccc(NC(=S)NC(=O)c2ccc(C(C)(C)C)cc2)cc1 | 106 % of DMSO
CCN(C(=O)c1ccccc1OC)c1cc2c(cc1N1CCNCC1C)n(C)c(=O)n2C (stereo not shown) | 93.7 % of DMSO
CC(C)[C@H]1CC[C@H](C(=O)N[C@H](Cc2ccccc2)C(=O)O)CC1 | 90.3 % of DMSO and 98 % of DMSO and 92.1 % of DMSO

Set 2
Target: Serine/threonine-protein kinase PLK1 (PLK1, Homo sapiens, UniProt P53350)
Sequence of UniProt P53350 (whole entry, looked up): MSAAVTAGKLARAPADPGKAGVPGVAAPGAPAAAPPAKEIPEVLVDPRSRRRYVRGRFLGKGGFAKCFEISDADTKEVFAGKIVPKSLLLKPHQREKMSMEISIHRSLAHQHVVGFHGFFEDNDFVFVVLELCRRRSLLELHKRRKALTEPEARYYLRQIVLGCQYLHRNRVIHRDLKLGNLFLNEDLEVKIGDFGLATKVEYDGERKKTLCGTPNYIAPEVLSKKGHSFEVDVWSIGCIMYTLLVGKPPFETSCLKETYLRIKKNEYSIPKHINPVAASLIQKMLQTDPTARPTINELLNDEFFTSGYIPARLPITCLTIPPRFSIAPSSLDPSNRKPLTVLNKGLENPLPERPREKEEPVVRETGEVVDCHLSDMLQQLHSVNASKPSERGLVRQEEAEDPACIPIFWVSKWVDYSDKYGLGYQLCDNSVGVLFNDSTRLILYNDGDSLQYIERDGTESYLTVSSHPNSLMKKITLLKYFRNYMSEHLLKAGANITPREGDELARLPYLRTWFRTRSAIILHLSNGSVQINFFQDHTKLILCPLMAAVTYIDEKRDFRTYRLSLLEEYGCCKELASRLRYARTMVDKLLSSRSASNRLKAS
Effect on: enzyme activity
Action: inhibitor
Tested at: 0.5 µM
Reference: control
Structure (SMILES) | remaining activity
CN(C)CCCn1cc(C2=C(c3c[nH]c4ccccc34)C(=O)NC2=O)c2ccccc21 | 101%
O=c1cc(N2CCOCC2)oc2c1ccc1ccccc12 | 68.4%
O=C1NC(=O)/C(=C/c2ccc3nccnc3c2)S1 | 100%
COc1cc2ncc(-c3ccccc3)nc2cc1OC | 98.5%
Cn1cnc2cc3c(Nc4cccc(Br)c4)ncnc3cc21 | 97.6%
COc1ccc(Cl)cc1NC(=O)Nc1cc(C)nc2ccccc12 | 96.9%
CCC(=O)Nc1ccc2ncnc(Nc3cccc(Br)c3)c2c1 | 95.3%
COc1cc2ncnc(Nc3ccc(OCc4ccccc4)cc3)c2cc1OC | 101%
CC(C)c1nn(-c2c(Cl)cccc2Cl)c2nc(Cc3ccc(OCCO)cc3)[nH]c(=O)c12 | 93.9%
COc1cc2ncnc(N3CCN(C(=O)Nc4ccc(Oc5ccccc5)cc4)CC3)c2cc1OC | 96.6%
Cn1cc(/C=C2\C(=O)Nc3ccc(S(N)(=O)=O)cc32)c2ccccc21 | 92.1%
CC(C)[C@H](CO)Nc1nc(Nc2cccc(Cl)c2)c2ncn(C(C)C)c2n1 | 89.2%
O=C(Nc1ccc(Cl)cc1)c1ccccc1NCc1ccncc1 | 103%
CCN1/C(=C/C(C)=O)Sc2ccc(OC)cc21 | 97%
Cc1ccc(NC(=O)c2ccc(CN3CCN(C)CC3)cc2)cc1Nc1nccc(-c2cccnc2)n1 | 100%
Nc1[nH]nc2nnc(-c3c(-c4ccccc4)nn4ccccc34)cc12 | 98.1%
CCOc1cc2ncnc(Nc3cccc(Br)c3)c2cc1OCC | 93.6%
Cc1nc(Nc2ncc(C(=O)Nc3c(C)cccc3Cl)s2)cc(N2CCN(CCO)CC2)n1 | 98.1%

Set 3
Structure (SMILES): CC(=O)N[C@@H](Cc1c[nH]c2ccccc12)C(=O)N[C@@H](CCC(=O)C=[N+]=[N-])C(=O)OC(C)C
test system | conditions | remaining compound [%]
mouse intestinal homogenate | 5 µM, 0.05 h, with: E64 10 µM | 0.297
mouse intestinal homogenate | 5 µM, 0.05 h, with: protease inhibitor cocktail | 90
mouse intestinal homogenate | 5 µM, 0 h, with: E64 10 µM | 100
mouse EL4 tumour homogenate | 5 µM, 0 h, with: dichlorvos 500 µM | 100
mouse EL4 tumour homogenate | 5 µM, 0 h, with: PMSF 1.0 mM | 100
mouse EL4 tumour homogenate | 5 µM, 1 h, with: aprotinin 0.8 µM | 0.107
mouse intestinal homogenate | 5 µM, 0.05 h, with: PMSF 1.0 mM | 112
mouse intestinal homogenate | 5 µM, 0 h, with: Pefabloc 1 mM | 100
mouse EL4 tumour homogenate | 5 µM, 0.05 h, with: bestatin 10 µM | 0.157
mouse intestinal homogenate | 5 µM, 0.05 h, with: bestatin 10 µM | 1.4
mouse EL4 tumour homogenate | 5 µM, 0.05 h, with: dichlorvos 500 µM | 39
mouse intestinal homogenate | 5 µM, 0 h, no inhibitor | 100
mouse, EL4 tumour homogenate | 5 µM, 0.05 h, with: PMSF 1.0 mM | 78.3
human plasma | 20 µM, 60 min, 37 °C | 96
EL4 tumour homogenate, mouse | 5 µM, 0 h, with: leupeptin 100 µM | 100

Further values, each from its own experiment
Structure (SMILES) | cell line | technique | tested at | reference | endpoint | value
CN(C)C(=O)/C(C#N)=C/c1ccc(-c2nc3cnc4[nH]ccc4c3n2C2CCCCC2)o1 | normal-adjacent epithelium patient-derived organoids sample F | CellTiter-Glo | 0.1 µM | DMSO | viability | 78.9% and 114%

A few entries again (set 3):
test system | conditions | remaining compound [%]
mouse intestinal homogenate | 5 µM, 0 h, with: Pefabloc 1 mM | 100
mouse EL4 tumour homogenate | 5 µM, 0.05 h, with: bestatin 10 µM | 0.157
mouse intestinal homogenate | 5 µM, 0.05 h, with: bestatin 10 µM | 1.4
mouse EL4 tumour homogenate | 5 µM, 0.05 h, with: dichlorvos 500 µM | 39
mouse intestinal homogenate | 5 µM, 0 h, no inhibitor | 100
